{"data": "Experimental data from different studies", "expR": "expR (Pectobacterium carotovorum, UniProt Q4KS34)", "note": "Protocols differ between the studies behind these lines. ± gives the spread as reported."}
{"SMILES": "CCC1(c2cccc(O)c2)CCCCN(C)C1 (stereo not shown)", "target": "Nuclear receptor subfamily 2 group C member 2, ligand-binding domain (Homo sapiens, UniProt P49116)", "assay": "SPR imaging", "quantity": "Kd", "value": "28.8 nM"}
{"SMILES": "C[C@@H](Cc1ccccc1)N(C)Cc1ccccc1", "target": "Sodium-dependent serotonin transporter (SLC6A4, Homo sapiens, UniProt P31645)", "assay": "inhibitor", "quantity": "IC50", "value": "80 nM"}
{"SMILES": "[H]/N=C(/N)N[C@H]1[C@H](O)[C@@H](O)[C@H](O[C@@H]2O[C@@H](C)[C@](O)(C=O)[C@H]2O[C@@H]2O[C@@H](CO)[C@H](O)[C@@H](O)[C@@H]2NC)[C@@H](N/C(N)=N\\[H])[C@@H]1O", "target": "Multidrug resistance protein MdtM (mdtM, Salmonella typhi, UniProt Q8XFG0)", "quantity": "Kd", "value": "20 ± 4 nM"}
{"SMILES": "C#CC[C@@H](N)C(=O)N[C@H](CO)C(=O)N[C@@H](C(=O)N[C@H](CO)C(=O)N[C@H](CCC(=O)O)C(=O)N[C@@H](C(=O)N[C@H](CCC(N)=O)C(=O)N[C@H](CC(C)C)C(=O)N[C@H](CCSC)C(=O)N[C@H](Cc1c[nH]cn1)C(=O)N[C@H](CC(N)=O)C(=O)N[C@H](CC(C)C)C(=O)NCC(=O)N[C@H](CCCCN)C(=O)N[C@H](Cc1c[nH]cn1)C(=O)N[C@H](CC(C)C)C(=O)NCC(=O)N[C@H](CO)C(=O)N[C@H](CCSC)C(=O)N[C@H](C)C(=O)N[C@H](CCCNC(=N)N)C(=O)N[C@@H](C(=O)N[C@H](Cc1ccc(O)cc1)C(=O)N[C@H](Cc1ccccc1)C(=O)N[C@H](CC(C)C)C(=O)N[C@H](CCCNC(=N)N)C(=O)N[C@H](Cc1ccccc1)C(=O)N[C@H](CCCCN)C(=O)N[C@H](CC(C)C)C(=O)N[C@H](CCC(N)=O)C(=O)N[C@H](CC(C)C)C(=O)N[C@@H](C(N)=O)C(C)C)C(C)C)[C@H](C)CC)C(C)C", "target": "hemagglutinin influenza A/California/07/2009 H1N1", "quantity": "Ki", "value": "17000 nM"}
{"SMILES": "COc1cc(CCNC(C)c2ccccc2O)c(OC)cc1C#N (stereo not shown)", "target": "5-hydroxytryptamine receptor 2A (HTR2A, Homo sapiens, UniProt P28223)", "assay": "binding", "quantity": "Ki", "value": "7.4 nM"}
{"SMILES": "O=C(Cc1cccc([N+](=O)[O-])c1)N[C@H]1CCOC1=O", "target": "expR", "quantity": "EC50", "value": "700 nM"}
{"SMILES": "Cn1cc2cc(C(F)(F)c3nnc4ccc(-c5cnn(C6CC6)c5)nn34)c(F)cc2n1", "target": "Hepatocyte growth factor receptor (MET, Homo sapiens, UniProt P08581)", "quantity": "IC50", "value": "2.2 nM"}
{"SMILES": "C#CC[C@@H](N)C(=O)N[C@H](CO)C(=O)N[C@@H](C(=O)N[C@H](CO)C(=O)N[C@H](CCC(=O)O)C(=O)N[C@@H](C(=O)N[C@H](CCC(N)=O)C(=O)N[C@H](CC(C)C)C(=O)N[C@H](CCSC)C(=O)N[C@H](Cc1c[nH]cn1)C(=O)N[C@H](CC(N)=O)C(=O)N[C@H](CC(C)C)C(=O)NCC(=O)N[C@H](CCCCN)C(=O)N[C@H](Cc1c[nH]cn1)C(=O)N[C@H](CC(C)C)C(=O)N[C@H](CC(N)=O)C(=O)N[C@H](CO)C(=O)N[C@H](CCSC)C(=O)N[C@H](CCC(=O)O)C(=O)N[C@H](CCCNC(=N)N)C(=O)N[C@@H](C(=O)N[C@H](Cc1ccc(O)cc1)C(=O)N[C@H](Cc1c[nH]c2ccccc12)C(=O)N[C@H](CC(C)C)C(=O)N[C@H](CCCNC(=N)N)C(=O)N[C@H](Cc1ccccc1)C(=O)N[C@H](CCCCN)C(=O)N[C@H](CC(C)C)C(=O)N[C@H](CCC(N)=O)C(=O)N[C@H](C)C(=O)N[C@@H](C(N)=O)C(C)C)C(C)C)[C@H](C)CC)C(C)C", "target": "hemagglutinin influenza A/California/07/2009 H1N1", "quantity": "Ki", "value": "8000 nM"}
{"SMILES": "Brc1ccc2c(c1)C(c1ccccn1)=NCc1c(-c3cnco3)ncn1-2", "target": "Alpha-2B adrenergic receptor (ADRA2B, Homo sapiens, UniProt P18089)", "test system": "rat", "quantity": "Ki", "value": "834 ± 341 nM"}
{"SMILES": "CCCC(NC)C(=O)c1ccc2c(c1)OCO2 (racemic)", "target": "Sodium-dependent dopamine transporter (Slc6a3, Rattus norvegicus, UniProt P23977)", "assay": "dopamine uptake, inhibitor", "test system": "rat brain synaptosomes", "setting": "together with: [3H]dopamine", "quantity": "IC50", "value": "~120 nM"}
{"SMILES": "C[C@H]1CN(c2n[nH]c3nc(N[C@H]4CC[C@H](NS(=O)(=O)CCC(F)(F)F)CC4)ncc23)CCO1", "target": "Very-long-chain enoyl-CoA reductase (Homo sapiens, UniProt Q9NZ01)", "assay": "biochemical", "quantity": "IC50", "value": "≥ 20000 nM"}
{"SMILES": "Nc1ncnc2c1ncn2[C@@H]1O[C@H](COP(=O)(O)OP(=O)(O)OP(=O)(O)O)[C@@H](O)[C@H]1O", "target": "Hepatocyte growth factor receptor (MET, Homo sapiens, UniProt P08581, C1091S/C1146S/K1232C/L1195V)", "assay": "binding", "quantity": "Kd", "value": "61000 ± 2000 nM"}
{"SMILES": "CCCc1cc(O)c2c(c1)OC(C)(C)[C@@H]1CCC(C)=C[C@@H]21", "target": "Transient receptor potential cation channel subfamily V member 3 (TRPV3, Homo sapiens, UniProt Q8NET8, R696K)", "assay": "calcium uptake, agonist", "test system": "HEK293S", "setting": "mutant R696K, site 3", "quantity": "EC50", "value": "3880 ± 280 nM"}
{"SMILES": "CC[C@@H](NC(=O)CNC(=O)[C@@H](CC(C)C)NC(=O)CNC(=O)[C@H](N)CCC(N)=O)C(=O)N[C@H](CC(=O)O)C(=O)N[C@H](CCC(=O)O)C(=O)N[C@H](CCSC)C(=O)N[C@H](CC(C)C)C(=O)N[C@H](CCC(N)=O)C(=O)NCC(=O)N[C@H](Cc1ccccc1)C(=O)N[C@H](C)C(=O)N[C@@H](C(=O)N[C@H](C)C(=O)N[C@@H](C(=O)N[C@H](CCCCN)C(=O)N[C@H](CCSC)C(=O)NCC(=O)N[C@H](C)C(=O)N[C@H](Cc1ccc(O)cc1)C(=O)N[C@H](CCCCN)C(=O)N[C@H](C)C(=O)N[C@H](CC(=O)O)C(=O)O)C(C)C)C(C)C", "target": "hemagglutinin influenza A/California/07/2009 H1N1", "quantity": "Ki", "value": "13000 nM"}
{"SMILES": "COc1ccc(CCN)cc1OC", "target": "Gag polyprotein, nucleocapsid protein p7 (gag, Human immunodeficiency virus type 1 group M subtype B, UniProt P04591)", "assay": "NCp7-RNA binding, AlphaScreen", "test system": "HIV-1", "setting": "together with: 25 nM NCp7, 12.5 nM RNA", "quantity": "IC50", "value": "15700 nM"}
{"SMILES": "C#CC[C@@H](N)C(=O)N[C@H](CO)C(=O)N[C@@H](C(=O)N[C@H](CO)C(=O)N[C@H](CCC(=O)O)C(=O)N[C@@H](C(=O)N[C@H](CCC(N)=O)C(=O)N[C@H](CC(C)C)C(=O)N[C@H](CCSC)C(=O)N[C@H](Cc1c[nH]cn1)C(=O)N[C@H](CC(N)=O)C(=O)N[C@H](CC(C)C)C(=O)NCC(=O)N[C@H](CCCCN)C(=O)N[C@H](Cc1c[nH]cn1)C(=O)N[C@H](CC(C)C)C(=O)N[C@H](CC(N)=O)C(=O)N[C@H](CO)C(=O)N[C@H](CCSC)C(=O)N[C@H](CCC(=O)O)C(=O)N[C@H](CCCNC(=N)N)C(=O)N[C@@H](C(=O)N[C@H](CCC(=O)O)C(=O)N[C@H](Cc1c[nH]c2ccccc12)C(=O)N[C@H](CC(C)C)C(=O)N[C@H](CCCNC(=N)N)C(=O)N[C@H](CCCCN)C(=O)N[C@H](CCCCN)C(=O)N[C@H](CC(C)C)C(=O)N[C@H](CCC(N)=O)C(=O)N[C@H](CC(=O)O)C(=O)N[C@@H](C(N)=O)C(C)C)C(C)C)[C@H](C)CC)C(C)C", "target": "hemagglutinin influenza A/California/07/2009 H1N1", "quantity": "Ki", "value": "> 58000 nM"}
{"SMILES": "Oc1cccc([C@]23CCC[C@H]([C@H]2O)N(CC=Cc2ccccc2)CC3)c1", "target": "Delta-type opioid receptor (Oprd1, Rattus norvegicus, UniProt P33533)", "assay": "displacement", "test system": "rat brain homogenate", "setting": "together with: [3H]DADLE 1 nM, DAMGO 30 nM", "quantity": "Ki", "value": "17.8 ± 1.35 nM"}
{"SMILES": "CN[C@]1(c2ccccc2Cl)CCCCC1=O", "target": "Neuronal acetylcholine receptor subunit alpha-7 (CHRNA7, Homo sapiens, UniProt P36544)", "assay": "channel function, antagonist, IonWorks Barracuda", "quantity": "IC50", "value": "17400 nM"}
{"SMILES": "OC1(c2ccc(Cl)cc2)c2ccccc2C2=NCCN21 (stereo not shown)", "target": "snf (Aquifex aeolicus, UniProt O67854, G24D/I359G/N21Y/S256G/T254S)", "assay": "saturation binding", "quantity": "Kd", "value": "295 ± 7 nM"}
{"SMILES": "CC(C)(CCCCCCN=C=S)c1cc(O)c2c(c1)OC(C)(C)[C@@H]1CC[C@@H](CO)C[C@@H]21", "target": "Cannabinoid receptor 1 (CNR1, Homo sapiens, UniProt P21554)", "assay": "forskolin-stimulated cAMP accumulation, agonist, HTRF", "test system": "CHO-K1", "quantity": "EC50", "value": "2 nM"}
{"SMILES": "O=C(CCc1ccc(Br)cc1)N[C@H]1CCOC1=O", "target": "expR", "quantity": "IC50", "value": "1650 nM"}
{"SMILES": "CC[C@@H](NC(=O)CNC(=O)[C@@H](CC(C)C)NC(=O)CNC(=O)[C@H](N)CCC(N)=O)C(=O)N[C@H](CC(=O)O)C(=O)N[C@H](CCC(=O)O)C(=O)N[C@H](CC(N)=O)C(=O)N[C@H](CC(C)C)C(=O)N[C@H](CCC(N)=O)C(=O)NCC(=O)N[C@H](Cc1ccccc1)C(=O)N[C@H](C)C(=O)N[C@@H](C(=O)N[C@H](C)C(=O)N[C@@H](C(=O)N[C@H](CCCCN)C(=O)N[C@H](CCSC)C(=O)NCC(=O)N[C@H](C)C(=O)N[C@H](Cc1ccc(O)cc1)C(=O)N[C@H](CCCCN)C(=O)N[C@H](C)C(=O)N[C@H](Cc1c[nH]c2ccccc12)C(=O)O)C(C)C)C(C)C", "target": "hemagglutinin influenza A/California/07/2009 H1N1", "quantity": "Ki", "value": "10000 nM"}
{"note": "Repeated from above:"}
{"SMILES": "CC(C)(CCCCCCN=C=S)c1cc(O)c2c(c1)OC(C)(C)[C@@H]1CC[C@@H](CO)C[C@@H]21", "target": "Cannabinoid receptor 1 (CNR1, Homo sapiens, UniProt P21554)", "assay": "forskolin-stimulated cAMP accumulation, agonist, HTRF", "test system": "CHO-K1", "quantity": "EC50", "value": "2 nM"}
{"SMILES": "C[C@@H](Cc1ccccc1)N(C)Cc1ccccc1", "target": "Sodium-dependent serotonin transporter (SLC6A4, Homo sapiens, UniProt P31645)", "assay": "inhibitor", "quantity": "IC50", "value": "80 nM"}
{"SMILES": "O=C(Cc1cccc([N+](=O)[O-])c1)N[C@H]1CCOC1=O", "target": "expR", "quantity": "EC50", "value": "700 nM"}
{"SMILES": "COc1ccc(CCN)cc1OC", "target": "Gag polyprotein, nucleocapsid protein p7 (gag, Human immunodeficiency virus type 1 group M subtype B, UniProt P04591)", "assay": "NCp7-RNA binding, AlphaScreen", "test system": "HIV-1", "setting": "together with: 25 nM NCp7, 12.5 nM RNA", "quantity": "IC50", "value": "15700 nM"}
